Assay results collected from several papers.
Lines come from different studies, so protocols differ. ± gives the spread as reported.

Molecule | test | test system | setting | scale | endpoint | value
CN1Cc2ccccc2[C@@H]2c3cccc4[nH]cc(c34)C[C@H]21 |  | rat, prefrontal cortex | 10 nmol/kg | baseline: control | spike-LFP synchronization | decreased
O=C(O)Cc1ccccc1Nc1c(Cl)cccc1Cl | thermal hyperalgesia | Sprague-Dawley rat, male, CFA inflammation | subcutaneous, 30 mg/kg, 2 h |  | paw-withdrawal latency | 7.3 ± 2.1 s
N=C(N)NC(=O)c1nc(Cl)c(N2CCCCCC2)nc1N |  | Sprague-Dawley rat, urine | iv, 1.5 mg/kg, 6 h, together with: acetazolamide 25 mg/kg | baseline: acetazolamide alone | sodium excretion | no effect
CCC[C@@H]1NC(C)(C)CO[C@@]1(O)c1cccc(Cl)c1 | nicotine antinociception blockade, antagonist, tail-flick test | mouse | 15 min pretreatment, together with: nicotine 2.5 mg/kg subcutaneous |  | AD50 | 0.004 mg/kg
CCC1CC(N2CCCCC2)CC(CC)N1C(=O)Oc1c(OC)cc(-c2nc(-c3ccccc3)c(-c3cccs3)[nH]2)cc1OC (centres unmarked) |  | GFAP-EGFP mice, intrastriatal IL-1β | oral, 10 mg/kg DPTIP equivalent, 30 min before IL-1β, read 4 h after, together with: IL-1β |  | GFP+ EV release into blood | inhibited
C[C@@]12OC(=O)[C@]1([C@@H](O)[C@@H]1C=CCCC1)NC(=O)[C@@H]2CCCl |  | tumour-bearing mice, tumour | intravenous, 0.15 mg/kg twice weekly, three weeks, 3 h after last dose, day 21 |  | inhibition | 60 to 80%
NCC(=O)Nc1cncc(-c2nn3c(=O)cc(N4CCNCC4)nc3s2)c1 | platelet function, VerifyNow iso-TRAP | STEMI patients | subcutaneous, 0.09 mg/kg |  | time to 50% inhibition | 104 min
COC1(C[S@@+]([O-])c2ccccc2)CCN(CCc2c[nH]c3ccc(F)cc23)CC1 | antagonist | anaesthetised minipig | intravenous, 1 mg/kg, 15 min before agonist, together with: LMN-NKA 100 µg/kg subcutaneous |  | colorectal pressure increase | inhibited
O=c1cc(-c2ccc(O)cc2)oc2cc(O[C@@H]3O[C@H](CO)[C@@H](O)[C@H](O)[C@H]3O)cc(O)c12 | ABTS scavenging, absorbance |  | 15 min |  | IC50 | 55.3 µM
Cc1ccc2cc3c(ccc4ccccc43)c3c2c1CC3 | adrenal apoplexy prevention | rat | oral, together with: 7,12-DMBA 5 mg i.v. |  | non-protective dose | 0.1 mg
N=C(N)NC(=O)c1nc(-c2cc3ccccc3o2)c(N2CCCCCC2)nc1N |  | Sprague-Dawley rat | iv, 1.5 mg/kg, 6 h, together with: acetazolamide 25 mg/kg | baseline: acetazolamide alone | urine volume | no effect
COc1cc2ncnc(Nc3ccc(F)c(Cl)c3)c2cc1NC(=O)/C=C/CN1CCCCC1 | immunohistochemistry | human, skin biopsy | dose not given, cycle 1 day 14, increased dose, steady state | baseline: baseline | Ki67 level | decreased
Oc1cc2c(cc1O)C(c1ccccc1)CNCC2 (centres unmarked) | cocaine-appropriate responding, drug discrimination | male rats trained on cocaine | intraperitoneal, LMS, together with: cocaine 10 mg/kg training dose |  | dose for full substitution | 40 mg/kg
C=C(C)[C@H]1Cc2c(ccc3c2O[C@@H]2COc4cc(OC)c(OC)cc4[C@@H]2C3=O)O1 | complex I-driven respiration | cortical mitochondria, Fischer 344 rat | 10 pM, 16 min | baseline: before exposure | reduction of oxygen consumption | 75%
C[C@@H]1O[C@@H](O[C@@H]2[C@@H](O)[C@H](OCCc3ccc(O)c(O)c3)O[C@H](CO)[C@H]2OC(=O)/C=C/c2ccc(O)c(O)c2)[C@H](O)[C@H](O)[C@H]1O | ABTS scavenging, absorbance |  | 15 min |  | IC50 | 25.6 µM
C#CCN(C)CCCOc1ccc(Cl)cc1Cl.Cl | acoustic startle | Sprague-Dawley rat | subcutaneous, 0.3 mg/kg | baseline: vehicle | startle magnitude | no effect
NNC(=O)Cn1c2ccccc2c2cn[nH]c(=O)c21 |  | Ehrlich ascites carcinoma mouse | dose not given |  | mean survival time | 17.2 days
CC1(C)CC(O)CC(C)(C)N1[O] | item: luminol signal | C57BL/6 mice, carrageenan footpad inflammation | iv, 5 mg/kg, 15 min before luminol |  | ROS chemiluminescence | decreased

Molecule | test | test system | setting | scale | endpoint | value
polymyxin B | immunohistochemistry | Kunming mice, LPS-induced testicular inflammation, testis | oral, dose not given, 20 and 40 days, together with: LPS | baseline: LPS alone | Nrf2-positive area | increased
Fc1ccc(C(OCCN2CCN(CCCc3ccccc3)CC2)c2ccc(F)cc2)cc1 | cocaine-appropriate responding, drug discrimination | male rats trained on cocaine | intraperitoneal, LMS, together with: cocaine 10 mg/kg training dose |  | dose for full substitution | 10 to 18 mg/kg
C=CP(=O)(Nc1ccccc1)OCC(F)(F)F (centres unmarked) | UPLC |  | pH 8.5, together with: glutathione |  | second-order rate constant | 0.021 M⁻¹ s⁻¹
Cc1cc(O)cc(C)c1C[C@H](N)C(=O)N[C@@H]1CCNc2ccc(CC3Cc4ccccc4C3)cc21 | warm water tail withdrawal | C57BL/6 mice | intraperitoneal, up to 10 mg/kg cumulative |  | antinociception | inactive
CC(NC(C)(C)C)C(=O)c1cccc(Cl)c1 (centres unmarked) | nicotine-induced antinociception, antagonist, tail-flick test | mice | together with: nicotine 2.5 mg/kg sc |  | AD50 | 1.2 mg/kg
Cc1cc(O)cc(C)c1C[C@H](N)C(=O)N[C@@H]1CCNc2ccc(CC3CCCCC3)cc21 | warm water tail withdrawal | C57BL/6 mice | intraperitoneal, up to 10 mg/kg cumulative |  | antinociception | inactive
CC[C@H](CC[C@@H](C)[C@H]1CC[C@H]2[C@@H]3CC=C4C[C@@H](O[C@@H]5O[C@H](CO)[C@@H](O)[C@H](O)[C@H]5O)CC[C@]4(C)[C@H]3CC[C@]12C)C(C)C | ABTS scavenging, absorbance |  | 15 min |  | IC50 | 97 µM
C=CC(=O)N1CCC([C@@H]2CCNc3c(C(N)=O)c(-c4ccc(Oc5ccccc5)cc4)nn32)CC1 |  | Chinese patients, relapsed/refractory B-cell malignancies | 160 mg twice daily vs 320 mg once daily, log-rank test |  | progression-free survival difference | no effect
picrotoxin | synaptic inhibitory current, inhibitor | ChAT neurons, mouse | dose not given, held at 0 mV, together with: DNQX and APV |  | D1-MSN evoked IPSC on ChAT neurons | inhibited
O=C(Nc1ccccc1)C1CCN(C(=O)Oc2cccnc2)CC1 | LEP N2-P2 amplitude | healthy women, capsaicin responders, capsaicin-treated skin | 100 mg, day 21 | baseline: placebo day 21 | mean difference vs placebo | -2.24 µV
CC[C@H](C)[C@H](NC(=O)[C@H](Cc1ccc(O)cc1)NC(=O)[C@@H]1CCCN1C(=O)[C@H](CCCNC(=N)N)NC(=O)[C@H](CCCNC(=N)N)NC(=O)[C@@H]1CCCN1C(=O)[C@H](CCCCN)NC(=O)[C@H](CSC1CC(=O)N(CCNC(=O)CCCCC[N+]2=C(C=CC=CC=C3N(CC)c4ccc5c(S(=O)(=O)O)cc(S(=O)(=O)[O-])cc5c4C3(C)C)C(C)(C)c3c2ccc2c(S(=O)(=O)O)cc(S(=O)(=O)O)cc32)C1=O)NC(=O)CN1CCN(CC(=O)O)CCN(CC(=O)O)CCN(CC(=O)O)CC1)C(=O)N[C@@H](CC(C)C)C(=O)O (some centres unmarked) [copper-64 labelled] | PET imaging | HT-29 xenograft, male BALB/c nu/nu mice | intravenous, 4 h |  | tumour uptake | 1.79 ± 0.16 %ID/g
CCCN1CCC[C@@H]2Cc3n[nH]cc3C[C@H]21 | cocaine-appropriate responding, drug discrimination | male rats trained on cocaine | intraperitoneal, LMS, together with: cocaine 10 mg/kg training dose |  | dose for full substitution | 0.125 mg/kg
CC[C@H](C)[C@H](NC(=O)[C@H](CC(C)C)NC(=O)[C@H](Cc1c[nH]c2ccccc12)NC(=O)[C@H](CCC(N)=O)NC(=O)[C@@H](NC(=O)[C@H](Cc1ccccc1)NC(=O)[C@H](C)NC(=O)[C@H](CCCCNC(=O)COCCOCCNC(=O)COCCOCCNC(=O)CC[C@H](NC(=O)CCCCCCCCCCCCCCCCCCC(=O)O)C(=O)O)NC(=O)[C@H](CCC(N)=O)NC(=O)[C@H](C)NC(=O)[C@@H](NC(=O)[C@H](CCCCN)NC(=O)[C@H](CC(=O)O)NC(=O)[C@H](CC(C)C)NC(=O)C(C)(C)NC(=O)[C@@H](NC(=O)[C@H](CO)NC(=O)[C@H](Cc1ccc(O)cc1)NC(=O)[C@H](CC(=O)O)NC(=O)[C@H](CO)NC(=O)[C@@H](NC(=O)[C@H](Cc1ccccc1)NC(=O)[C@@H](NC(=O)CNC(=O)[C@H](CCC(=O)O)NC(=O)C(C)(C)NC(=O)[C@@H](N)Cc1ccc(O)cc1)[C@@H](C)O)[C@@H](C)O)[C@@H](C)CC)[C@@H](C)CC)C(C)C)C(=O)N[C@@H](C)C(=O)NCC(=O)NCC(=O)N1CCC[C@H]1C(=O)N[C@@H](CO)C(=O)N[C@@H](CO)C(=O)NCC(=O)N[C@@H](C)C(=O)N1CCC[C@H]1C(=O)N1CCC[C@H]1C(=O)N1CCC[C@H]1C(=O)N[C@@H](CO)C(N)=O |  | Japanese type 2 diabetes patients | dose not given, 8 weeks | baseline: placebo | body weight change | ≤ 6.6 kg
CC[C@@H]1NC(C)(C)CO[C@@]1(O)c1cccc(Cl)c1 | nicotine antinociception blockade, antagonist, tail-flick test | mouse | 15 min pretreatment, together with: nicotine 2.5 mg/kg subcutaneous |  | AD50 | 0.004 mg/kg
CC(C)(NC(=O)O[C@@H]1CN2CCC1CC2)c1csc(-c2ccc(F)cc2)n1 |  | sample A patients, plasma | oral, 15 mg once daily, week 52, together with: imiglucerase |  | glucosylsphingosine median | 14.8 ng/mL
Nc1ncnc2c1ncn2[C@@H]1O[C@H](COP(=O)(O)CP(=O)(O)O)[C@@H](O)[C@H]1O | dot blot, item: soluble CD73 | culture medium | range over 1 to 100 µM, 15 min, rat cells |  | CD73 release into medium | no effect
neuropeptide Y |  | rat, plasma | intratesticular, 2 µg/kg, together with: hCG |  | cumulative testosterone release | 15.3 ± 2.3 ng/mL

For quick reference, copied from above:
Molecule | test | test system | setting | scale | endpoint | value
CC(C)(NC(=O)O[C@@H]1CN2CCC1CC2)c1csc(-c2ccc(F)cc2)n1 |  | sample A patients, plasma | oral, 15 mg once daily, week 52, together with: imiglucerase |  | glucosylsphingosine median | 14.8 ng/mL
Cc1cc(O)cc(C)c1C[C@H](N)C(=O)N[C@@H]1CCNc2ccc(CC3CCCCC3)cc21 | warm water tail withdrawal | C57BL/6 mice | intraperitoneal, up to 10 mg/kg cumulative |  | antinociception | inactive
COC1(C[S@@+]([O-])c2ccccc2)CCN(CCc2c[nH]c3ccc(F)cc23)CC1 | antagonist | anaesthetised minipig | intravenous, 1 mg/kg, 15 min before agonist, together with: LMN-NKA 100 µg/kg subcutaneous |  | colorectal pressure increase | inhibited
O=C(Nc1ccccc1)C1CCN(C(=O)Oc2cccnc2)CC1 | LEP N2-P2 amplitude | healthy women, capsaicin responders, capsaicin-treated skin | 100 mg, day 21 | baseline: placebo day 21 | mean difference vs placebo | -2.24 µV
CC[C@H](C)[C@H](NC(=O)[C@H](Cc1ccc(O)cc1)NC(=O)[C@@H]1CCCN1C(=O)[C@H](CCCNC(=N)N)NC(=O)[C@H](CCCNC(=N)N)NC(=O)[C@@H]1CCCN1C(=O)[C@H](CCCCN)NC(=O)[C@H](CSC1CC(=O)N(CCNC(=O)CCCCC[N+]2=C(C=CC=CC=C3N(CC)c4ccc5c(S(=O)(=O)O)cc(S(=O)(=O)[O-])cc5c4C3(C)C)C(C)(C)c3c2ccc2c(S(=O)(=O)O)cc(S(=O)(=O)O)cc32)C1=O)NC(=O)CN1CCN(CC(=O)O)CCN(CC(=O)O)CCN(CC(=O)O)CC1)C(=O)N[C@@H](CC(C)C)C(=O)O (some centres unmarked) [copper-64 labelled] | PET imaging | HT-29 xenograft, male BALB/c nu/nu mice | intravenous, 4 h |  | tumour uptake | 1.79 ± 0.16 %ID/g
C#CCN(C)CCCOc1ccc(Cl)cc1Cl.Cl | acoustic startle | Sprague-Dawley rat | subcutaneous, 0.3 mg/kg | baseline: vehicle | startle magnitude | no effect
